Measured values of several laboratories.
Values joined by “and” are separate records of one study, mostly repeats; a detail may differ.
Target: Tyrosine-protein kinase CSK (CSK, Homo sapiens, UniProt P41240)
Chain of UniProt P41240 (whole entry, looked up): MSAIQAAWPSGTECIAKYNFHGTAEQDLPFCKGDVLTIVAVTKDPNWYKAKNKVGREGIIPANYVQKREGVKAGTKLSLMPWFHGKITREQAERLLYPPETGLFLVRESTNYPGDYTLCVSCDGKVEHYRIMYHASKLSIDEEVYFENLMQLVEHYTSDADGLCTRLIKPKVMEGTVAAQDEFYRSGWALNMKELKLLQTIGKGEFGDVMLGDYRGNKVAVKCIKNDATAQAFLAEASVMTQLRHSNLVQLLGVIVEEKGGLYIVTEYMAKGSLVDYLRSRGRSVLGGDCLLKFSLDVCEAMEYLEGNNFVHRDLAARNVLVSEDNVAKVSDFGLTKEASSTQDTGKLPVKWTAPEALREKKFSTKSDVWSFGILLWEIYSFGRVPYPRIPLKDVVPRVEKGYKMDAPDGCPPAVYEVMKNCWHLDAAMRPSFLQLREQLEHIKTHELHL

N[C@H]1CC[C@H](Nc2nccc(-c3cccnc3Oc3ccc(NC(=O)NC4CC4)c4ccccc34)n2)CC1 — log2 LFQ intensity (kinobead competition pulldown; HEK293/HCT116 lysate mixture; 10 µM, 1 h, 4 °C; lower = stronger competition): 27.4 and 27.2
Cc1nc2c(F)cc(-c3nc(Nc4ccc(CNC(=O)CCCCCCC(=O)NO)cc4)ncc3F)cc2n1C(C)C — inhibition (enzyme activity, inhibitor; 1 µM): 33%
Cc1cnc2nc1Nc1cccc(c1)COC/C=C/COCc1cc(ccc1OCCN1CCOCC1)N2 — percent of control (concentration not given): 78%
Cc1cccc(O[C@H]2CCC[C@@H](C(C)CNCc3ccncc3)C2)c1 (relative stereo) — inhibition (kinase activity, kinome panel screening; 10 µM): -11%
Nc1ncc2c(n1)-c1c([nH]c3ccc(C4=CCOCC4)cc13)CCC2 — remaining binding (binding, competition with immobilised ligand; 1 µM): 81%
C[C@H]1CN(C(=O)c2cn(-c3ccnc(N)n3)c3cc(C#CC4(O)CCCCC4)ccc23)CCN1 — inhibition (enzyme activity, inhibitor, FRET; 1 µM): 3%
CN1CC[C@@H](COc2cnc(C#N)cc2-c2ccn3nc(NC(=O)C4CC4)cc3c2)C1 — inhibition (enzyme activity, inhibitor; 1 µM): -12%
C=CC(=O)N1CCCC(n2c(=O)c3ncccc3n(Cc3ccc(Oc4ccccc4)cc3)c2=O)C1 (centres unmarked) — remaining binding (cell-free assay, competition with immobilised ligand; 1 µM): 100%
Cc1ccc(C)c(-c2ccc3nc(NC(=O)C4CCCCC4)nn3c2)c1 — remaining activity (enzyme activity, Dundee kinase panel; 10 µM): 68%
NC(=O)[C@@H](O)C[C@H]1CCc2sc3ncnc(O[C@H]4CC[C@H](N5CCOCC5)CC4)c3c21 — inhibition (enzyme activity, inhibitor; 10 µM): 34%
Cc1cccc(-c2ccc3nc(NC(=O)C4CCCO4)nn3c2)c1 (centres unmarked) — remaining activity (enzyme activity, Dundee kinase panel; 10 µM): 84%
COc1cc(Nc2nccc(-c3cnn4nc(OC)ccc34)n2)cc(C(F)(F)F)c1 — remaining binding (binding, competition with immobilised ligand; 1 µM): 83%
C=CC(=O)N1CCc2ccc(-n3c(=O)ccc4cnc5ccc(-c6cnn(C)c6)cc5c43)cc21 — remaining binding (KINOMEscan; 1 µM; reference: DMSO control): 100%
Nc1nc(Nc2ccccc2)sc1C(=O)c1ccccc1 — remaining activity (enzyme activity, inhibitor; 10 µM): 57%
CCN1CCN(Cc2ccc(NC(=O)c3ccc(C)c(NC(=O)c4cncc(-c5cccs5)c4)c3)cc2C(F)(F)F)CC1 — remaining binding (binding, competition with immobilised ligand; 1 µM): 1.6%
CNC(=O)C[C@H](Cc1ccc(C#N)cc1)NC(=O)c1cc(-c2ccc(CN[C@H](C)c3ccc(C)cc3)o2)ccc1Cl — activity vs control (enzyme activity, inhibitor; 1 µM): 119%
O=C(Cc1ccc(OCc2ccccc2)cc1)NC1(C(=O)O)CCN(C(=O)c2ccc(-c3cccc(Cl)c3)cc2)CC1 — activity vs control (enzyme activity, inhibitor; 10 µM): 135%
CNC(=O)C1CCN(c2cc(C)c(F)cc2NC(=O)c2ccc(-c3cc(O)ccc3C)c(C)c2)CC1 — remaining binding (binding, competition with immobilised ligand; 1 µM): 39%
C=CC(=O)Nc1cccc(-c2cnc3[nH]cc(C(=O)NC(C)(C)C)c3n2)c1 — inhibition (enzyme activity, inhibitor; 0.1 µM): 4%
O=C=[N][Ru-4]123([n]4c5ccc(O)cc5c5c6c(c7cc(F)c[n+]1c7c54)C(=O)NC6=O)[S+]1CC[S+]2CC[S+]3CC1 (centres unmarked) — remaining activity (enzyme activity; 100 nM, human enzyme, together with: 10 µM ATP; reference: untreated): 102%
